Experimental data gathered from unrelated publications.
Parts stem from different laboratories: compare values within a part only. Positions count from the first letter of the parent shown.
UniProt Q9BYP7, sequence (whole entry, looked up): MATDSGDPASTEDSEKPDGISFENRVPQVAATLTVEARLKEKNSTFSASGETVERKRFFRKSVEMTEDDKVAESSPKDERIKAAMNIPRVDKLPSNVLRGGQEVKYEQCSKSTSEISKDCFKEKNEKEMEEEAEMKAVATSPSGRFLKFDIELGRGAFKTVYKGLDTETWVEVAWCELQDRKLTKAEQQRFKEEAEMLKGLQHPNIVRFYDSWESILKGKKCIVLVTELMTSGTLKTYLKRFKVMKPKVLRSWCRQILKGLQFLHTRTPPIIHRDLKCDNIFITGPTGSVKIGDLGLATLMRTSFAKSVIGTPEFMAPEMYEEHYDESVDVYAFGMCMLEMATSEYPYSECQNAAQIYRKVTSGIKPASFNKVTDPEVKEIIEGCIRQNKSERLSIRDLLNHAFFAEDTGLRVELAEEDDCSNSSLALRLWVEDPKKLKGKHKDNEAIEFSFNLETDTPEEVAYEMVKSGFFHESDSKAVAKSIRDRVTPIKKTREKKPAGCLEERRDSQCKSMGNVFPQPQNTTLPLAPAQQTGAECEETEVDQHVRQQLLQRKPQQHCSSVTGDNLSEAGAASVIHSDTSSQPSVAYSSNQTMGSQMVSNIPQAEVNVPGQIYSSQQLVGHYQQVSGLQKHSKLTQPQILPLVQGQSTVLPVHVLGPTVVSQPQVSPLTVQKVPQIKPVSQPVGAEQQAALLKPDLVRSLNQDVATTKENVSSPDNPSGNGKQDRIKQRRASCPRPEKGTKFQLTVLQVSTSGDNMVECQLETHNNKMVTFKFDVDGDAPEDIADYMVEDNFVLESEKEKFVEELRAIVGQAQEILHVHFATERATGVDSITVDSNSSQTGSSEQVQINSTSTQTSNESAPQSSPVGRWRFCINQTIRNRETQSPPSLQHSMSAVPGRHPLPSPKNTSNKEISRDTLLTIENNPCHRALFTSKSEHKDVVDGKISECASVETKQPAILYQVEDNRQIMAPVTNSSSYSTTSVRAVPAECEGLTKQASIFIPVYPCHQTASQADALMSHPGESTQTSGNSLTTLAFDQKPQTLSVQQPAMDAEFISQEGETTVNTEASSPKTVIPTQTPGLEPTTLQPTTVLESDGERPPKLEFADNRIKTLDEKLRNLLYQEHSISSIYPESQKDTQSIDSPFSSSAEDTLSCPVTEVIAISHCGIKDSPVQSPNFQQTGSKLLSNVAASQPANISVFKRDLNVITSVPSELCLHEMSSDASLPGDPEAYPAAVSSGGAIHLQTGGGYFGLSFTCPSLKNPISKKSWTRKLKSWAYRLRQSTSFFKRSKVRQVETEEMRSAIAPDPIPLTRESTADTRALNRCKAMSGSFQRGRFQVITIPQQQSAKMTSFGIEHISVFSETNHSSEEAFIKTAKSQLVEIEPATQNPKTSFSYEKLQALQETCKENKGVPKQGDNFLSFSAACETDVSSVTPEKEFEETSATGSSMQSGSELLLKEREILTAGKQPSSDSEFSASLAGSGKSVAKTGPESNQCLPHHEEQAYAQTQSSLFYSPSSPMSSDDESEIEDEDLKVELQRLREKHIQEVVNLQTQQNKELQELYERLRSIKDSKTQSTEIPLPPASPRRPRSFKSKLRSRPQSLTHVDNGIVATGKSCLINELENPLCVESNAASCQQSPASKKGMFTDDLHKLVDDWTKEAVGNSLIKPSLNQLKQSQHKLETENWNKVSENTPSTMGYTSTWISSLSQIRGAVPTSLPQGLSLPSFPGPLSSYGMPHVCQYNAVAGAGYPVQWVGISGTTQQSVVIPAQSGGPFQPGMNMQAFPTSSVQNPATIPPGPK
UniProt P11362, sequence (whole entry, looked up): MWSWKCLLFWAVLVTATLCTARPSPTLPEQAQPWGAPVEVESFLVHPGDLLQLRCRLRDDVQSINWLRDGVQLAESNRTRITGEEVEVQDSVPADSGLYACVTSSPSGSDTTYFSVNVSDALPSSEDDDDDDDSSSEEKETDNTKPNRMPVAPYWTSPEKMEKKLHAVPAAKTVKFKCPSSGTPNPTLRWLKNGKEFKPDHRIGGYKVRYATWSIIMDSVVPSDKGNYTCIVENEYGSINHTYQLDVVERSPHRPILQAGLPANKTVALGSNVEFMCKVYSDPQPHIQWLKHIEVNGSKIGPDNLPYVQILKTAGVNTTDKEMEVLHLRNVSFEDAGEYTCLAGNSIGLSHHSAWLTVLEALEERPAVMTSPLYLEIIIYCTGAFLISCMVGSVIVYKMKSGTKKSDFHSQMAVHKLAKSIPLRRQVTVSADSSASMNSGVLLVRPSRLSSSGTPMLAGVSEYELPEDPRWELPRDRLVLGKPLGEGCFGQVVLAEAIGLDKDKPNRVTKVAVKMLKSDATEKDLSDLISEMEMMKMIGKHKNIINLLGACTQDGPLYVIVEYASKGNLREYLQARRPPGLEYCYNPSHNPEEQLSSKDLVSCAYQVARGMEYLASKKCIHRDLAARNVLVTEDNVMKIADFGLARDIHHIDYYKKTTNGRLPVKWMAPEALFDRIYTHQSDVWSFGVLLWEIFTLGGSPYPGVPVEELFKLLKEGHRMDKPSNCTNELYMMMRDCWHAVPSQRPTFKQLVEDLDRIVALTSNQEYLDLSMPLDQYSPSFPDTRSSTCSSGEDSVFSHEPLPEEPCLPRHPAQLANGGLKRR

Block 1
Target: RNA binding protein fox-1 homolog 2, RRM domain, GST-SBP tag (RBFOX2, Homo sapiens, UniProt O43251-10, residues 100-194)
Technique: RNA Bind-n-Seq
Form: RNA
Sample: in vitro
Concentration: 365 nM
Setting: natural RNA segment, single round, ends assumed
Reference: no-protein control
Reading: higher = stronger binding
Quantity: RBNS enrichment (R)
Constant ends, left off below: GGGAGUUCUACAGUCCGACGAUC … UGGAAUUCUCGGGUGCCAA
CGUCAACUCCUGUCAUUUUUAGAAAAUAAAACUGGAAAUUGAAUGUGGGUGGCAUGAUUGUACCCUCCUGGCUCUGUAUUUUCUCACUCCUCUGUCCUUCUAUAACUAGG: 20.6
AUUGGUGUUGAUGAUUUUGAGCUUGAAUGUUUUCAUACCUGAUUAAAACUUGGUUUAUUCUAAUUUCUGUAUCAUAUCAUCUGAGGUUUACGUGGUAACUAGUCUUAUAA: 0.879
UCCCGCCAGUCUCCAUUGAAUCAAUGGUGCAGGACAGAAAGCCAGUCAGACUAAUUUCCUUCUUUCCUCGCACUUCUCCCCACUCGUCAUCUUUUAACUAGUGUUUCACA: 0.468
AGCUAGAGCAGAACUCUUCAUGUACAACGGCCAUUUCUCCUCACUGGCGCGAGAGCGCCUUGACACCUGUACCAAGCAAGCCACCCACUGCCAAGAGAUGUGAUAUAUAA: 0.873
CAGGUGCCUGGGGCUGGCUGCAGACGGUGUGGUUGGGGGUGGGAGGUGAGCUAGACCCAACCCUUAGCUUUUAGCCUGGCUGUCACCUUUUUAAUUUCCAGAACUGCACA: 1.41
AGAGAACUGAUUUCCUAGCAUUCUUCCCUAGUAAAAUCUUUCCCAAUAGAACAGUAUGUUCCCUUAAACCCAAAUGAACAUCACGCUACUUUCUUUUACCUGUGGCAAAG: 0.469
AGUUCUAUCAGUAUUUAUGUUGAAAUUUCUAACAUGGAUUCUAGUCUCUAUUCUGUUAAUUUAAUUUUAAAUGCUUUAUCCAUUUGUGCAAAGGUAAACACAGAUUGUAU: 0.942
CAAAAGAGCUCUGGCCCGCAUCUCGCUGUGCCCUGAAGGGGGAUGAAGGGCGAUGCCUCGCCCGAGGCUUUGGGCUGCUGCACUGCAUGCUGGGACUGCUCCUACUCUCU: 5.73

Block 2
SMILES: O=C(Nc1cccnn1)N1CC(C/C=C/c2cncc(Oc3ccc(C(F)(F)F)cn3)n2)C1
Read-out: cell-free assay
Technique: competition with immobilised ligand
Concentration: 1 µM
Quantity: remaining binding
Hepatocyte growth factor receptor (MET, Homo sapiens, UniProt P08581, Y1235D): 100%
Fibroblast growth factor receptor 1 (FGFR1, Homo sapiens, UniProt P11362): 100%
Serine/threonine-protein kinase WNK3 (WNK3, Homo sapiens, UniProt Q9BYP7): 84%

Block 3
Target: SRSF protein kinase 2 (SRPK2, Homo sapiens, UniProt P78362)
UniProt P78362, sequence (whole entry, looked up): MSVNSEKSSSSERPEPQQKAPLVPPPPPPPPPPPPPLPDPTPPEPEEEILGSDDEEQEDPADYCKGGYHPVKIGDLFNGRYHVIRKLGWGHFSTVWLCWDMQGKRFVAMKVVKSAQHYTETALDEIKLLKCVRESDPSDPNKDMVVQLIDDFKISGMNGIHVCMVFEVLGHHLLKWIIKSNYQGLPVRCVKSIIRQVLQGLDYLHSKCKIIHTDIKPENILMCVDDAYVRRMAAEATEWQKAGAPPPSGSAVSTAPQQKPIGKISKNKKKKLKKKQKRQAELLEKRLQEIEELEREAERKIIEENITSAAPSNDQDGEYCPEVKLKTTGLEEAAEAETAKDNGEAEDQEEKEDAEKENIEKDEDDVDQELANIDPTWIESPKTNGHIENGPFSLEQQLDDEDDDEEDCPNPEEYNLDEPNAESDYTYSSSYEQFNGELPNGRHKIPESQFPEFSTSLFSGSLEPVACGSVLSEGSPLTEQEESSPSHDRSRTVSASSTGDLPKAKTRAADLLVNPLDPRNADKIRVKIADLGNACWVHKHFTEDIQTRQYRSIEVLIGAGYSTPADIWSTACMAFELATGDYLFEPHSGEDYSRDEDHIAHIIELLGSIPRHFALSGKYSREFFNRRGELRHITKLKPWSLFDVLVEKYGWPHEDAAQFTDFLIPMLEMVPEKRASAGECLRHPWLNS
Read-out: enzyme activity
Action: inhibitor
Concentration: 0.5 µM
Reference: control
Quantity: remaining activity
CO[C@H]1C[C@@H]2CC[C@@H](C)[C@@](O)(O2)C(=O)C(=O)N2CCCC[C@H]2C(=O)O[C@H]([C@H](C)C[C@@H]2CC[C@@H](O)[C@H](OC)C2)CC(=O)[C@H](C)/C=C(\C)[C@@H](O)[C@@H](OC)C(=O)[C@H](C)C[C@H](C)/C=C/C=C/C=C/1C: 104%
COc1cc2ncnc(Nc3ccc(Oc4ccccc4)cc3)c2cc1OC: 101%
O=c1c2ccccc2[nH]c(=S)n1CCN1CCC(=C(c2ccc(F)cc2)c2ccc(F)cc2)CC1: 94.1%
NCCNc1ncc(C(N)=O)c(Nc2cccc(C(F)(F)F)c2)n1: 97.6%
CNC(=O)c1cc(Oc2ccc(NC(=O)Nc3ccc(Cl)c(C(F)(F)F)c3)cc2)ccn1: 102%
COc1ccc(C(=O)Nc2sc3c(c2C(N)=O)CCCC3)cc1OC: 97.6%
OCC(O)CCON=C1C(c2c(O)[nH]c3ccccc23)=Nc2ccccc21 (stereo not shown): 86.5%
COc1cc2nccc(Oc3ccc(NC(=S)NC(=O)c4ccccc4C)cc3)c2cc1OC: 93.4%
CCOC(=O)c1c(C)[nH]c(/C=C2\C(=O)Nc3ccccc32)c1C: 92.3%
COc1ccc(CNC(=O)Nc2ncc([N+](=O)[O-])s2)cc1: 99.6%
Nc1[nH]nc2nc3ccccc3nc12: 95.9%
O=C(O)c1ccc2c3c1cccc3c(=O)n1c3ccccc3nc21: 89.3%
CC(C)[C@H](CO)Nc1nc(Nc2cc(N)cc(Cl)c2)c2ncn(C(C)C)c2n1: 31%
CN(C)c1ccc(C=C2C(=O)Nc3ccccc32)cc1: 100%
Cc1ccc(NC(=O)c2ccc(CN3CCN(C)CC3)cc2)cc1Nc1nc(-c2cccnc2)cs1: 101%

Block 4
Target: CCNB3, cyclin fold, Cln2 fusion (human)
Technique: yeast growth competition, sequencing
Sample: yeast
Setting: weak parent motif
Reference: not given
Reading: higher = stronger binding
Quantity: normalised enrichment score
Starting sequence: CDKN1B docking peptide (human); PSACRNLFGPVDH; partner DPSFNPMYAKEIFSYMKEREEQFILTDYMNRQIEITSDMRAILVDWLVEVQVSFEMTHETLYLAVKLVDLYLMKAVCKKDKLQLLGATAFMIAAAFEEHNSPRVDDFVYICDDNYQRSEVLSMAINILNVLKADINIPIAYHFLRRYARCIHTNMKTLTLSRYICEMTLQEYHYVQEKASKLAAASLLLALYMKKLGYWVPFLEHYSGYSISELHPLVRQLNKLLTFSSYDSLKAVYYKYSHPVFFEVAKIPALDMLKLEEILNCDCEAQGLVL
PSACRRLFGPVDH [N6R]: 0.175
PSACRNLFGPVDV [H13V]: 0.438
PSACRNLFGPVGH [D12G]: 0.581
PSACRNLEGPVDH [F8E]: -0.0525
PSACRILFGPVDH [N6I]: 0.759
PSACRNKFGPVDH [L7K]: 0.12
PSAMRNLFGPVDH [C4M]: -0.144
PSACRNLFWPVDH [G9W]: 0.0771

Some of these lines once more (block 1):
AGAGAACUGAUUUCCUAGCAUUCUUCCCUAGUAAAAUCUUUCCCAAUAGAACAGUAUGUUCCCUUAAACCCAAAUGAACAUCACGCUACUUUCUUUUACCUGUGGCAAAG: 0.469
CAGGUGCCUGGGGCUGGCUGCAGACGGUGUGGUUGGGGGUGGGAGGUGAGCUAGACCCAACCCUUAGCUUUUAGCCUGGCUGUCACCUUUUUAAUUUCCAGAACUGCACA: 1.41
